Measured values of several laboratories.
Lines come from different studies, so protocols differ. Numbers after ± are the reported error.

Compound | assay | test system | setting | how to read | measurement | value
COc1cc2ncnc(Oc3cccc(N[11C](=O)Nc4cc(C(C)(C)C(F)(F)F)on4)c3)c2cc1OC | dynamic PET | female Balb/c nude mice, A375 xenograft, tumour | intravenous, 60 min |  | tumour uptake | 0.69 ± 0.08 %ID/g
C=Cc1c(C)c2cc3nc(c(CC(=O)O)c4[nH]c(cc5nc(cc1[nH]2)C(C)=C5CC)c(C)c4C(=O)O)[C@@H](CCC(=O)NCCCC[C@H](NC(C)=O)C(=O)N[C@@H](Cc1ccccc1)C(=O)N[C@@H](Cc1ccccc1)C(=O)N[C@H](C(=O)N[C@@H](CC(C)C)C(=O)N[C@@H](CCCCN)C(=O)N[C@@H](CO)C(=O)NCC(=O)N[C@@H](CCC(N)=O)C(=O)N[C@@H](Cc1ccc(O)cc1)C(=O)N[C@@H](C)C(=O)N[C@@H](CO)C(=O)N[C@@H](Cc1ccc(O)cc1)C(=O)N[C@@H](Cc1c[nH]cn1)C(=O)N[C@@H](CS)C(=O)N[C@@H](Cc1c[nH]c2ccccc12)C(=O)N[C@@H](CS)C(=O)N[C@@H](Cc1c[nH]c2ccccc12)C(=O)N[C@@H](CCCNC(=N)N)C(=O)N[C@@H](CC(=O)O)C(=O)N1CCC[C@H]1C(=O)NCC(=O)N[C@@H](CCCNC(=N)N)C(=O)N[C@@H](CO)C(=O)NCC(=O)NCC(=O)N[C@@H](CO)C(=O)N[C@@H](CCCCN)C(N)=O)C(C)C)[C@@H]3C | ex vivo fluorescence imaging | 4T1 tumour-bearing mice | intravenous, 13 mg/kg |  | tumour fluorescence duration | 168 h
CC(C)C[C@@H](NC(=O)[C@@H](CCCNC(=N)N)NC(=O)[C@@H](Cc1c[nH]cn1)NC(=O)[C@@H](Cc1c[nH]c2ccccc12)NC(=O)[C@@H](Cc1c[nH]cn1)NC(=O)[C@@H](Cc1ccccc1)NC(=O)[C@H](NC(=O)[C@@H](Cc1ccc(O)cc1)NC(=O)CNC(=O)CNC(=O)CCOCCOCCOCCNC(=O)CN1CCN(CC(=O)O)CCN(CC(=O)O)CC1)[C@H](C)O)C(=O)N[C@H](CC(N)=O)C(=O)N1CCC[C@@H]1C(=O)O [gallium-68 labelled] |  | male C57BL/6 mice, tumour | intravenous, 1.85 MBq, 60 min, with: GP12 blocking | baseline: tumour over muscle | tumour to muscle ratio | 1.09 ± 0.3
C=Cc1c(C)c2cc3nc(c(CC(=O)O)c4[nH]c(cc5nc(cc1[nH]2)C(C)=C5CC)c(C)c4C(=O)O)[C@@H](CCC(=O)NCCCC[C@H](NC(C)=O)C(=O)N[C@@H](Cc1ccccc1)C(=O)N[C@@H](Cc1ccccc1)C(=O)N[C@H](C(=O)N[C@@H](CC(C)C)C(=O)N[C@@H](CCCCN)C(=O)N[C@@H](CO)C(=O)NCC(=O)N[C@@H](CCC(N)=O)C(=O)NCC(=O)N[C@@H](Cc1ccc(O)cc1)C(=O)N[C@@H](CCCNC(=N)N)C(=O)N[C@@H](Cc1c[nH]c2ccccc12)C(=O)N[C@@H](CC(=O)O)C(=O)N[C@@H](CO)C(=O)N[C@@H](Cc1ccc(O)cc1)C(=O)N[C@@H](CCCNC(=N)N)C(=O)N[C@@H](Cc1c[nH]c2ccccc12)C(=O)N[C@@H](Cc1c[nH]cn1)C(=O)N1CCC[C@H]1C(=O)N[C@@H](CO)C(=O)N[C@@H](CS)C(=O)N[C@@H](C)C(=O)N[C@@H](CS)C(=O)NCC(=O)NCC(=O)N[C@@H](CO)C(=O)N[C@@H](CCCCN)C(N)=O)C(C)C)[C@@H]3C | ex vivo fluorescence imaging | 4T1 tumour-bearing mice | intravenous, 13 mg/kg |  | tumour fluorescence duration | 48 h
CCCC[C@H]1C(=O)N(C)[C@@H](CCCC)C(=O)N[C@@H](CCCNC(=O)CN2CCN(CC(=O)O)CCN(CC(=O)O)CCN(CC(=O)O)CC2)C(=O)N[C@H](C(=O)NCC(N)=O)CSCC(=O)N[C@@H](Cc2ccc(O)cc2)C(=O)N(C)[C@@H](C)C(=O)N[C@@H](CC(N)=O)C(=O)N2CCC[C@H]2C(=O)N[C@@H](Cc2c[nH]cn2)C(=O)N[C@@H](CC(C)C)C(=O)N(C)CC(=O)N[C@@H](Cc2c[nH]c3ccccc23)C(=O)N[C@@H](CO)C(=O)N[C@@H](Cc2c[nH]c3ccccc23)C(=O)N1C [gallium-68 labelled] | static PET | NOD/SCID mice, CHO-hPD-L1 xenograft, CHO-hPD-L1 tumour | intravenous, 1 h post injection, after five atezolizumab treatments, with: atezolizumab 10 mg/kg |  | tumour uptake | 3.16 ± 0.15 %ID/g
[3H]c1sc(C)nc1C=C(C)C1CC2C(CCCC(C)C(O)C(C)C(=O)C(C)(C)C(O)CC(=O)O1)N2CCO (centres unmarked) |  | CD2F1 mice, M109 tumour (FR−) | intravenous, 2.2 nmol/kg, 24 h |  | tumour concentration | 240 ± 20 ng/g
COc1ccc(C)cc1NC(=O)OC1CC2CCCC(C1)N2Cc1ccc(CC[18F])cc1 (centres unmarked) |  | BALB/c mice, EMT6 tumour | 30 min | baseline: tumour over fat | tumour to tissue ratio | 0.45
CSCC[C@H](NC(=O)CNC(=O)[C@H](CCCCN)NC(=O)[C@H](CC(C)C)NC(=O)[C@@H]1CCCN1C(=O)[C@H](CO)NC(=O)[C@H](Cc1c[nH]cn1)NC(=O)[C@H](Cc1c[nH]c2ccccc12)NC(=O)[C@H](CCCNC(=N)N)NC(=O)[C@H](CC(C)C)NC(=O)[C@H](CCCNC(=N)N)NC(=O)[C@H](Cc1c[nH]c2ccccc12)NC(=O)[C@H](CS)NC(=O)CCCCCNC(=O)CN1CCN(CC(=O)O)CCN(CC(=O)O)CCN(CC(=O)O)CC1)C(=O)O [copper-64 labelled] |  | BALB/c nude mice, Huh-7 xenograft, tumour | intravenous, 1.85 MBq, 18 h |  | tumour uptake | 6.19 %ID/g
